Experimental data of several laboratories.
A part holds a random share of what one study measured. Positions count from the first letter of the parent shown.

Series 1
Target: RING finger protein unkempt homolog, zinc fingers 1-6, GST-SBP tag (UNK, Homo sapiens, UniProt Q9C0B0, residues 30-357)
Method: RNA Bind-n-Seq
Form: RNA
Matrix: in vitro
Concentration: not given
Notes: RNA with constant flanks, ends assumed
Reference: input RNA pool
Direction: higher = stronger binding
Target sequence (chain): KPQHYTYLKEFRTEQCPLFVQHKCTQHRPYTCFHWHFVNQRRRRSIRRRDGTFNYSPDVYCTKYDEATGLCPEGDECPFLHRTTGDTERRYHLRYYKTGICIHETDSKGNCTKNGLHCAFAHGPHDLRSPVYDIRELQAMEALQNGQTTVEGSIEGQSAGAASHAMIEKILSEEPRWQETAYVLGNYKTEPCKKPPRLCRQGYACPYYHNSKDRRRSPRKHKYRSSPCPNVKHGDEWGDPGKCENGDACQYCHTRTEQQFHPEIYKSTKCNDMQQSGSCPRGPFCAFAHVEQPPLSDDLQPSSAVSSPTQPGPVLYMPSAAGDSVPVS
The bound/input enrichment of `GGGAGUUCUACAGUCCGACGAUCCCAACAACAAAAAUUCAAAUCAGGUUAGCAGAUGGGAGUCGUUUGAUACAAAGAUUCAACCGUACACACAGGAUCCUGGAUGUCCGGAACUUUAUUGUACAGUCUCGUCCUGAAUUUGCGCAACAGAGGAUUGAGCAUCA` is reported as 0.158 ratio.
The bound/input enrichment of `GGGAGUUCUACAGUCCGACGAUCCCAGGUGUGCCCGGCUAAUGGUAUUACUGAGAGAGAGAGGCGUAAGAACUCUUAUUUAUUACCGAAAGGAUUUGGGGAAUGUGGGUCUAAGGGCUGGGGGUGUGGGUUAGUGGUGUGCAUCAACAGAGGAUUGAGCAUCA` is reported as 2.22 ratio.
`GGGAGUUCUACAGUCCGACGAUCUCUCCAUCUUGUUACAUUCCACUGCGGAGACUACAGGAUUUGGCCUCCAUGAUCAAUGCCGAAUAUUUAAGUGGGUCUGCUGAUGGAUCAGAAUCCUUUCAAGACCCUGCAAAAAGUGAUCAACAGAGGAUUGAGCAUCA` has a bound/input enrichment of 0.0946 ratio.
For `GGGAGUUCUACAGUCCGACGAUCAGACCAGAAACCAUGUUGUGAUUUCUUUUUAUCUUAGAAAACAUUUCUAUUUACAAUAAACCGUUACUAUGUAAAUAAUGUACAUAUGUAUUAAUUUCUUCAGUGUUAUACAAUGUAUAUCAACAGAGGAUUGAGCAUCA`, the bound/input enrichment was 2.41 ratio.
`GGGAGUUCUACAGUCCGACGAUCCUGGGGGAGGGCAUCUCCUGCUCCCUCCACCCUCCCAUUCACUCCCCCACCUUCCCCAAUUUCCGUUUCAUGCAAUAAAAAGGCCAAACUUUUAUUCCGUAAAACAUGAAGGACAAAACUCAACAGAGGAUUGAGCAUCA` gave a bound/input enrichment of 0.54 ratio.
With `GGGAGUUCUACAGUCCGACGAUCUUUAUCGCAGCAGUUGAUCUAGAUGAGAUGCCAUUCACUUUUACUGAGCUACAGAAAAGCACCGAAACCAGUGUCUAUAAAUUCUUUGACUUAUUAAAAGAAAUCGAUACCAGUACCAAGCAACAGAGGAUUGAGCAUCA` the bound/input enrichment was 0.313 ratio.
`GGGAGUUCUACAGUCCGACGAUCUCUCCGCUGAACCCCAUUUCUUCUGUUUCAUAGUGCAGAAGUAUUCUUUCAACUAUAUUUUCCGUGGACUUGUUUUAAUUUUAGAGGAAUUUCCAGUACAGAUGCUGUGAGCUGACAUGGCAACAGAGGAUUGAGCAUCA` has a bound/input enrichment of 2.12 ratio.

Series 2
Target: CCNE1, cyclin fold, Cln2 fusion (human)
Method: yeast growth competition, sequencing
Matrix: yeast
Notes: weak parent motif
Reference: not given
Direction: higher = stronger binding
Starting sequence: WEE1 docking peptide (human); CTLRQKLIFSPCS
For `CTLRQKAIFSPCS [L7A]`, “normalised enrichment score” read 0.223.
`CTLAQKLIFSPCS [R4A]`: “normalised enrichment score” 0.326.
`CTLRQKLIFAPCS [S10A]` — result for “normalised enrichment score”: 0.567.
`ATLRQKLIFSPCS [C1A]` — result for “normalised enrichment score”: 0.484.
Under “normalised enrichment score”, `CTLRQKLIFSPAS [C12A]` is recorded as 0.298.
For `CALRQKLIFSPCS [T2A]`, “normalised enrichment score” read 0.667.

Series 3
Target: Hepatocyte nuclear factor 3-alpha (Foxa1, Mus musculus, UniProt P35582, residues 1-468, full length assumed)
UniProt P35582, sequence (whole entry, looked up): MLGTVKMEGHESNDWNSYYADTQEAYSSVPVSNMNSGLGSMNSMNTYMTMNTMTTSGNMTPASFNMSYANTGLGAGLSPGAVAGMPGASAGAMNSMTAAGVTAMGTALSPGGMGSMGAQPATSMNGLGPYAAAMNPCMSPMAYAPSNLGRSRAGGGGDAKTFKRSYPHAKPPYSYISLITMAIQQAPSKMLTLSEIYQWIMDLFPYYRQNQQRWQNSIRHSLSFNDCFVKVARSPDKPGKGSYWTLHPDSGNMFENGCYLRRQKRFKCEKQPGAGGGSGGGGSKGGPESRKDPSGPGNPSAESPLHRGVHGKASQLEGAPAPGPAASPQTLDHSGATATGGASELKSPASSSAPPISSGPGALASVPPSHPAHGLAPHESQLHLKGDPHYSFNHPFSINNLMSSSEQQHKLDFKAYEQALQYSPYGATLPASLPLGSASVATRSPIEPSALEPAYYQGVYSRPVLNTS
Method: EMSA with sequencing
Form: double-stranded DNA, one strand shown
Matrix: in vitro
Concentration: 10 and 20 nM
Notes: whole designed probe, mean of two concentrations, ends assumed
Reference: negative control set to 0
Direction: higher = stronger binding
Under “normalised bound fraction”, `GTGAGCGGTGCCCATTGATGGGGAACTCGGCCAGCCTGGCTTCTGCGCCCCGCCAGGAGGTCGCGGAGCGGAGCGCGGCCAGGAAGTGAGCTGAGAGTGACAGCTCCCCCCACGCTGTTTGTTTATTCTCTCCACACACTGGCTCTTCTTATGACTCATTCTCTTTCGGGAGGAGGGGAGAAAGGAGCGGGAGGGCGGGCGGGCAGGGGAGAGGCAGGCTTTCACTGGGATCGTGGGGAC` is recorded as 0.322 ratio.
Under “normalised bound fraction”, `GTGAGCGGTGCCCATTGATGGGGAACTGATTCATCTGTAGGTCTGCTTCTATTGACTTTGTTCTCTTGATTATGGGCCACATTTTCCAGCTTCTTTGTGTGTTTTAAACTTTTGTATTATGTGTACTTTTACCTTACACACAAGCACATAAGCCATGTAAAGTCCCTGTTTTGGTGAGGTTGCAATTTTTGAGCCTCAAATTCTGACAGGAAGCCCCAGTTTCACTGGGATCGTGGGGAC` is recorded as 0.31 ratio.
`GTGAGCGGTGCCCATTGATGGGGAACCCCTCATCCTGGGTGTCGGGGTGGGAGGTGTTCTCATCATGAATGGGAGGCGTACCCAGATCCAGCTCTGCCTTTTTTTAACCAAACCACATTTGTTTACACTCGCTGTTAATCGAGTGACTCACCACATAGCAAGATATGATACATGCCAGGAGAGAAAAAGAAAGTGCTGATGGAAAAATAATCTCATTAGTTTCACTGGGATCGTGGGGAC`: “normalised bound fraction” 0.308 ratio.
`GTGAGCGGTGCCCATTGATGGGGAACTCTACACCAATGTCACACTGCCAAATCTCAAAGAAGATTTGGTTGTCACCACTTAAATCCCCTCATGAATGTTCTGGAAAAACTCCCTGCCCTTGTTGACATAGCCTCTCTGCATAAAACTCCTATCATATTCCCACTCCTAAATGTCTCCAAAGCCAACTTTGTCACTTACTGATTAATACCTACCATCTCCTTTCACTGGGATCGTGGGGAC` — result for “normalised bound fraction”: 0.27 ratio.
For `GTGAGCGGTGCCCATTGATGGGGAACATCTTCCCCCTCTTCCTTGCCCCACCAGCTCACCTTCCCGGGTTATTTGCACAAAGGAAAATAAATAAAGCCGGCATTCGTTAACGCAGTTCACGCGCATACTGCTGTTTGCTCTGGATGAATCATGGTCCTTTGGCGACGCCAGGCTCCGGGAGAGCAAAGCACCGTGTCAGGGCCATGATCCGGGGTGGCCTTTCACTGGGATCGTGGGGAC`, “normalised bound fraction” read 0.365 ratio.
`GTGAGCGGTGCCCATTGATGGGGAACATCTTCCCCCTCTTCCTTGCCCCACCAGCTCACCTTCCCGGGTTATTTGCAGATAGGAAAATAAAATGCAGCAGCATTCGTTAACCCTCTTCTGGCGCAAACTGCTGTTTGCTCTGGATGAATCATGGTCCTTTGGCGACGCCAGGCTCCGGGAGAGCAAAGCACCGTGTCAGGGCCATGATCCGGGGTGGCCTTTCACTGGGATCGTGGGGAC`: “normalised bound fraction” 0.145 ratio.
`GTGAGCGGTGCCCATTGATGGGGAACTACCAAAAATATCTAGAATGGAATGACATCTCCTCTAAGGCAGGGGATAATTAACTTGTCCCCACAAAGTATAAATAATCTCTTTCTTCACAAAGTAATCTTGTTTTTCTGACACTATCTGACATTTCCATCCAGTGTGCTTTTGAAACTGTATGCTCTTGTTTTTGTTTTTTATTTTTGTTTTTTTTGTTCATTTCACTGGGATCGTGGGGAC`: “normalised bound fraction” 0.026 ratio.
`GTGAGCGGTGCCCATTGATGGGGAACCAAAAATTGTTAAATCATTAAAAAATTGTTTGAAAATATACACTTCTTGTTGTAGACCCCCACTGTACACACGACTATAAACATTGTTCCCTATGTAAACAAAAAAAGGAAACATATAATAAGAGATTTGAAAAGTCTGGACATTTCCTTCCCAACAGATATTAAAGGCAACGTCTTTAATCTAAGACATTATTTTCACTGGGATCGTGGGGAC` — result for “normalised bound fraction”: 0.546 ratio.

Series 4
Target: Sal-like protein 4, full length isoform A (SALL4, Homo sapiens, UniProt Q9UJQ4, residues 1-1053)
UniProt Q9UJQ4, sequence (whole entry, looked up): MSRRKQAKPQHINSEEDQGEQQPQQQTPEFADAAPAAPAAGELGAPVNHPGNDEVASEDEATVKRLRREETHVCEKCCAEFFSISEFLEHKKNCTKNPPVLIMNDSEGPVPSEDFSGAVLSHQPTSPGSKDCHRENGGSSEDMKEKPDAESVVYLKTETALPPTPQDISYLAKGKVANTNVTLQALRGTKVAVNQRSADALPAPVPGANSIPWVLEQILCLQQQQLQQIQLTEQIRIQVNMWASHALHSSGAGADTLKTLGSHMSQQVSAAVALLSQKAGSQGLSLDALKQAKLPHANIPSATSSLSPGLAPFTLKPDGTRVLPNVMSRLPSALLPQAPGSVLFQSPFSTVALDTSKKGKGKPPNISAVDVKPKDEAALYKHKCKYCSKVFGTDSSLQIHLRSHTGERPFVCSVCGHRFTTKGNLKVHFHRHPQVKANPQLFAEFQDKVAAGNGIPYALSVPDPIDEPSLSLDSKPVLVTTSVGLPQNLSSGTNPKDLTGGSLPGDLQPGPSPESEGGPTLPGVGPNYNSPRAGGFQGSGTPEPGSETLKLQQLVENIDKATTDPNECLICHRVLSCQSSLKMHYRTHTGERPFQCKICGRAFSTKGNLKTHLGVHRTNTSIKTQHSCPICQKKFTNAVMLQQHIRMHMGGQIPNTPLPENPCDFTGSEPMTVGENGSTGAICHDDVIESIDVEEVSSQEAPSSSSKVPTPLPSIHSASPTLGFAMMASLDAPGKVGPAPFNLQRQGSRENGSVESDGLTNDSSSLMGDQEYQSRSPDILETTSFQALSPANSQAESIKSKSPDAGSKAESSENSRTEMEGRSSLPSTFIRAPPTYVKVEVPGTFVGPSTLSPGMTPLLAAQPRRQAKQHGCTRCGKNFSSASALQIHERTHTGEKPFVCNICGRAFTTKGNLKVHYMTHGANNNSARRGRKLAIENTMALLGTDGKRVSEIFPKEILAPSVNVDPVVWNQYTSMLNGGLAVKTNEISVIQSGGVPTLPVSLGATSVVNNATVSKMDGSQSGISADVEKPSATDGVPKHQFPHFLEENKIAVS
Method: universal PBM
Form: double-stranded DNA, one strand shown
Matrix: in vitro
Concentration: 600 nM
Notes: 8-mer, flanks averaged, mean of replicates
Direction: higher = stronger binding
With `GACTGTGA` the E-score was 0.0369.
The E-score of `CGGTTTGA` is reported as -0.108.
`CCCACCGG` gave an E-score of -0.334.
`ATCATGGA` gave an E-score of 0.0765.
For `GAAGACTA`, the E-score was 0.042.
For `AAACTGTC`, the E-score was 0.0382.
For `AGTAGCAG`, the E-score was 0.0371.
`ACATTCGA` has an E-score of 0.112.
For `AATGTAGA`, the E-score was 0.188.
For `GACGTTGC`, the E-score was -0.157.
`AAACTTGC` gave an E-score of 0.137.
The E-score of `AGATGCAC` is reported as -0.0207.
`ACATTAAT` has an E-score of 0.272.
`AGAGTTCG` has an E-score of -0.0722.
For `CGATAACA`, the E-score was 0.135.
With `CATTCGCA` the E-score was 0.0934.
For `GCGTGGTA`, the E-score was -0.117.
The E-score of `AGAAGCGC` is reported as -0.129.
With `CGTCTGAG` the E-score was -0.0905.
`GGCATGCC` has an E-score of -0.31.
With `CCCCTTGA` the E-score was -0.0782.
The E-score of `ATAAGTAT` is reported as 0.296.

Series 5
Target: ABI1, truncated, D143A, DHFR fusion (Arabidopsis thaliana)
Method: DHFR PCA, deep sequencing
Matrix: yeast
Notes: methotrexate growth selection, single substitutions
Added: (+)-ABA 0.032 µM
Reference: wild-type fitted maximum
Direction: higher = stronger binding
Starting sequence: PYL1, truncated, DHFR fusion (Arabidopsis thaliana); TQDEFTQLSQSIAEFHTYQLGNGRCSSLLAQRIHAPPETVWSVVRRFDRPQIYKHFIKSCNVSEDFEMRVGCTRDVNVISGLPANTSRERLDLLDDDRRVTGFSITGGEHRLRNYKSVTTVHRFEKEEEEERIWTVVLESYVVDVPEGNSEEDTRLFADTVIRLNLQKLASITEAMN; partner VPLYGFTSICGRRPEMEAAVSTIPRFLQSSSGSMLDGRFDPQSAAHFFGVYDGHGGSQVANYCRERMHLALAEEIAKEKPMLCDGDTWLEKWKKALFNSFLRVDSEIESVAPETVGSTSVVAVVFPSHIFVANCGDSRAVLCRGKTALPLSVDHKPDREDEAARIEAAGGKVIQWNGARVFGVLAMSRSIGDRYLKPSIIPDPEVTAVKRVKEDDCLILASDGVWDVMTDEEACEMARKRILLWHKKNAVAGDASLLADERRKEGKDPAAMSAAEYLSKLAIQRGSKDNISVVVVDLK
`Y141A` — result for “relative binding score”: -3.25%.
For `Y18I`, “relative binding score” read -2.88%.
Under “relative binding score”, `F5V` is recorded as 20.1%.
For `P37H`, “relative binding score” read -1.39%.
Under “relative binding score”, `H110L` is recorded as 18.6%.
Under “relative binding score”, `D96K` is recorded as 6.06%.
`E129C`: “relative binding score” 30.5%.
For `G71S`, “relative binding score” read -0.0475%.
`H122C`: “relative binding score” -1.77%.
`S171W`: “relative binding score” 6.52%.
`E147T`: “relative binding score” 9%.
`L93T` — result for “relative binding score”: 7.22%.
Under “relative binding score”, `L166K` is recorded as -1.3%.
`S150R`: “relative binding score” 6.09%.
`C25K`: “relative binding score” -6.26%.
For `R132Y`, “relative binding score” read 13.4%.
`Q10T`: “relative binding score” 25.6%.
`G81N` — result for “relative binding score”: 20.1%.

Repeated from above (series 5):
`S150R`: “relative binding score” 6.09%.
`C25K`: “relative binding score” -6.26%.
For `R132Y`, “relative binding score” read 13.4%.
